Published values pooled from the literature.
Protocols differ between the studies behind these lines.
HTR2A: 5-hydroxytryptamine receptor 2A (HTR2A, Homo sapiens, UniProt P28223)
UniProt P28223, sequence (whole entry, looked up): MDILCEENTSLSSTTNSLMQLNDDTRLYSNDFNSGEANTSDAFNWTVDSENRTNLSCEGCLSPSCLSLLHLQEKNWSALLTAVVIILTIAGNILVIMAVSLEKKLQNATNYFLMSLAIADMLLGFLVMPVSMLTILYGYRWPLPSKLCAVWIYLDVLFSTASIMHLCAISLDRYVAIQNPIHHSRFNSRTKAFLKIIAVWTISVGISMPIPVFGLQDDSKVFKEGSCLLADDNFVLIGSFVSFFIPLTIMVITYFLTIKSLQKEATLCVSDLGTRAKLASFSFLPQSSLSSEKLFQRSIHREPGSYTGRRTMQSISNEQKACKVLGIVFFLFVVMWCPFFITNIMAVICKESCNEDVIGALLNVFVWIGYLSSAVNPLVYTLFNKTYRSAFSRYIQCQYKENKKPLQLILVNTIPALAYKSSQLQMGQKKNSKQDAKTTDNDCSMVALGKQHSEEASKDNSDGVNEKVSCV

`C[Si]1(C[C@H](CN)CC(=O)O)CCCC1` has an inhibition of -2% (HTR2A; ligand displacement, radioligand; 70 µM).
For `COc1ccc(S(=O)(=O)N2CCc3ccccc3C2)cc1N1CCN(C(=O)c2ccc(F)cc2C(F)(F)F)CC1`, the inhibition was 9.2% (HTR2A; ligand displacement, radioligand; 1 µM).
For `CC1Cc2ccccc2N1C(=O)CN1CCN(Cc2ccccc2)CC1` (stereo not shown), the inhibition was 42.9% (HTR2A; radioligand binding; concentration not given, with: [3H]ketanserin).
The inhibition of `CC(C)Cn1c(SCC(=O)N2CCc3ccccc3C2)nc2cc(Cl)ccc2c1=O` is reported as -1% (HTR2A; ligand displacement, radioligand; 10 µM).
For `O=C1c2sc(-c3ccc(N4CCC(F)C4)nc3F)nc2CCN1c1cccnc1` (stereo not shown), the inhibition was -6% (HTR2A; ligand displacement, radioligand; 1 µM).
The relative translation of `COc1ccccc1CN1CC(C(=O)NCCN(C)CCc2ccccc2)CCC1=O` (stereo not shown) is reported as 120% (Trypanosoma cruzi; reporter mRNA translation, inhibitor, measured: capped polyadenylated Renilla luciferase mRNA; cell-free extract; concentration not given; relative to: control RNA).
For `Cc1cccc(O[C@H]2CCC[C@@H](C(C)CNCc3ccncc3)C2)c1` (relative stereo), the inhibition was 55% (HTR2A; ligand displacement; 10 µM).
`C[Si](C)(C)C[C@@H](CN)CC(=O)O` has an inhibition of -1% (HTR2A; ligand displacement, radioligand; 75 µM).
`c1ccc(OC[C@H]2CN(CCN3CCc4ccccc43)CCO2)nc1` gave an inhibition of 47.5% (HTR2A; radioligand binding; concentration not given, with: [3H]ketanserin).
`CCC(=O)N(C)c1ccc(Cl)c(Cl)c1` gave an inhibition of < 10% (HTR2A; ligand displacement, radioligand; 10 µM).
`CC1Cc2ccccc2N1C(=O)CN1CCN(c2ccccc2)CC1` (stereo not shown) has an inhibition of 34.5% (HTR2A; radioligand binding; concentration not given, with: [3H]ketanserin).
With `COc1ccc(C(=O)Nc2c(-c3cccs3)nc3ccccn23)cc1` the inhibition was < 50% (HTR2A; ligand displacement, radioligand; 10 µM).
With `Cc1ccc(NC(=O)CCC(=O)N/N=C/c2ccc([N+](=O)[O-])o2)cc1C` the relative translation was 109% (Trypanosoma cruzi; reporter mRNA translation, inhibitor, measured: capped polyadenylated Renilla luciferase mRNA; cell-free extract; concentration not given; relative to: control RNA).
